Experimental data gathered from unrelated publications.
A part holds a random share of what one study measured. Changes are numbered by the printed parent chain.

Block 1
Target: ABI1, truncated, D143A, DHFR fusion (Arabidopsis thaliana)
Technique: DHFR PCA, deep sequencing
Sample: yeast
Notes: methotrexate growth selection, single substitutions
Added: (+)-ABA 17 µM
Relative to: wild-type fitted maximum
Reading: higher = stronger binding
Measurement: relative binding score
Starting sequence: PYL1, truncated, DHFR fusion (Arabidopsis thaliana); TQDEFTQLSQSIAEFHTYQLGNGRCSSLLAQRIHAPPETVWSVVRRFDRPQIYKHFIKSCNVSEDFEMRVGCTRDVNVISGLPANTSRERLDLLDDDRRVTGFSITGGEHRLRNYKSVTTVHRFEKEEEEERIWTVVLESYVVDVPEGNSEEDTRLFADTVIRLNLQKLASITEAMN; partner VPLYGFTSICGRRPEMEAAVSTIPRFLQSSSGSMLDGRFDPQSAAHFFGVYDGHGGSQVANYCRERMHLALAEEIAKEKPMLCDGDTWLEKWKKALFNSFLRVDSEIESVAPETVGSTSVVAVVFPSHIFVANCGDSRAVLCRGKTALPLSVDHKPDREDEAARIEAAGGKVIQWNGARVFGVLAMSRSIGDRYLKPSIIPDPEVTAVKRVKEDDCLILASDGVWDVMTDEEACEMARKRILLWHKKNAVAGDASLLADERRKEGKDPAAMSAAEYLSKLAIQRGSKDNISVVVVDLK
R123T: 87.2%
D159P: -7.49%
W41H: -28.5%
S59H: 67.2%
L82Y: 11.7%
I162G: -11.2%
S171E: 94.2%

Block 2
Target: CCNB2, cyclin fold, Cln2 fusion (human)
Technique: yeast growth competition, sequencing
Sample: yeast
Notes: strong parent motif
Relative to: not given
Reading: higher = stronger binding
Measurement: normalised enrichment score
Starting sequence: BRCA2 docking peptide (human); PSIKRNLLNEFDR
F11K: 0.132
I3Y: 1.11
I3A: 1.54
R13P: 3.19
S2W: 1.53
K4R: 3.89
R5C: 2.18
L7Y: 0.129

Block 3
Substance: PhoQ, residues 284 288 289 292 302 303 TLMATV
Technique: Sort-seq
Refers to: YFP reporter
Sample: E. coli
Notes: PhoQ-PhoP variant library
Added: 10 µM Mg2+
Relative to: high Mg2+ state
Reading: higher = stronger signaling
Measurement: fold induction
PhoP, residues 12 14 15 18 19 ICWRQ (Escherichia coli, UniProt P23836): 6.27
PhoP, residues 12 14 15 18 19 VHTVL (Escherichia coli, UniProt P23836): 4.88
PhoP, residues 12 14 15 18 19 TQCLL (Escherichia coli, UniProt P23836): 2.21

Block 4
Target: RING finger protein unkempt homolog, zinc fingers 1-6, SBP tag (UNK, Homo sapiens, UniProt Q9C0B0, residues 30-357)
Sequence of UniProt Q9C0B0 (30-357, looked up): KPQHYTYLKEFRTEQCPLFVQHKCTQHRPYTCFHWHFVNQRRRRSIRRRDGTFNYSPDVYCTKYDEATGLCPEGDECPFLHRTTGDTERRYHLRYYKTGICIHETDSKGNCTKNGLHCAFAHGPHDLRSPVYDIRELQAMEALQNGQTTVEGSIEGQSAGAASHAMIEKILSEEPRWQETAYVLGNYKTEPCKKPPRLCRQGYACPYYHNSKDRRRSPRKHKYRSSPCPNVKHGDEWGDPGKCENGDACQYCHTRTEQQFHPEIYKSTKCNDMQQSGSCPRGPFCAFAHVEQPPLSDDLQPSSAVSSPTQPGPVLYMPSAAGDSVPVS
Technique: RNA Bind-n-Seq
Molecule type: RNA
Sample: in vitro
Tested at: 100 nM
Notes: RNA with constant flanks, vertebrate orthologous sites, ends assumed
Relative to: input RNA pool
Reading: higher = stronger binding
Measurement: bound/input enrichment
Shared flanks, not repeated: GGGAGUUCUACAGUCCGACGAUC … CAACAGAGGAUUGAGCAUCA
UUAGGCCGACAGCGACCUGAACAGGUUAGUCAUCUGUGCACGGCUUCAAAUGGAACAACAGUCUAGUCAGGUUUUUAAUUUCCAUAUGAAAAGCGGCUUUCCCCGAGACUUUCAAAGAAG: 0.205 ratio
GCAAUGAAAAAGCAGCCCUUCUCCCAACCCCUUUUUCACUAGGAGAUGCAAACGGUACCCUAGAAGAGCAAUUAAACUCGAUAAAUUUAUCUUUUCAGGAUGAUCCAGACUCCAGUACCA: 0.48 ratio
CUGUACUAGCGCCAUACCAGCAUCUGAACUAGACCUCUGUGCACGCCUUUCUUAACCGUCUAGUUACGUUUUUCAGUUCUUUCCAGGACACUGCUUUUCCCAAGACUGAAAAAGCGAGCG: 0.576 ratio
CUAGUCUUCCACUUAGGGUUGGCCUCAAACCUAUAGGACUUAUGACAAAUGUAUAUCUACUUAGGUUGAGUUUAAUAUUUUUUUAUUAGCCUGUAAAUAAAGAUUGCAUCUUCUACAUUA: 0.521 ratio
CCGAAAGGCCAAAUUCCCUCCUCCCUUCUACUGCUUCUACCAACUGGAAGCACAGAAAACUAGAAUUUCAUUUAUUUUCUUUUUAAAAAAUUAUAUGUUGAUUUCUUGUAACAUCCAAUA: 0.755 ratio
GAUAAUUGGAUCCUUGUAAUACUGUCCACUUCUACAUCUUGUUCUUCACCUUUCUAUUGCACAUGUCUCUAUUGCACAUAUUAUGUAAACAUAAAGUGAAUAAAGUUGUGUGUUUAAAAU: 0.284 ratio
AGUAGUUUUAAGCUUGUUUGCACAGUUCUUUUUUUCCAUUGGAAAUGGAAUUCAUUGCCUUAGGUCUUUUUUAAAUAGUGUAUUAUUAUCGUUGGGGCUGGCUCUAUGCUUGAAAACCAG: 4.29 ratio
GAGCUCCAGGAGUUAGCAUCUUUAUUUUUGUAUUAAAGAUAAAGGUUAUUUUGAAAUUAUUAGGAUUUUUACACAAUUCUGAAAUCUAUUGCUUUUGUAAAUCAAUUGUUUGAUCACCCC: 1.42 ratio
ACAAUCUUCUACUUAAACUGGUAUUUUCAAACAAUAGGAACCUAUUUUUUUUUGUUACAGUUUAGUAUCUCGUUUCUACAUGGAAGACUAAACUCAUGCUUAUAGCUAAAUGUGGUCUUU: 0.451 ratio
CCUACAAUAAUGAAAACCUAUAGAAAUUUUUUAAUUUUUCAUUUUCCCCUUAGGCAUACAUAGUCUUUCCGCCCCCAGGCAGAUCAUUCUGAGUGUGCGAGUGUGUGUGCACAUGUUACA: 1.25 ratio
CUCUAGUUCUUAAAAACCAACAUUCCUAAAAGAGUUAGAAAAAAAGUUUACAACGUAAUCUAGUUUACGAAGAAGUCUUGUGCUAGAAUACUUUUUUAAAAGUAUUUUGAAUACCAUUAA: 0.358 ratio

Some of these lines once more (block 1):
R123T: 87.2%
D159P: -7.49%
W41H: -28.5%
S59H: 67.2%
